Measurements gathered from unrelated publications.
Each line is one published result; not all experiments were run side by side. Several values in a cell are separate wells, animals, samples, runs or records. ± gives the spread as reported.

Cc1cc(F)cc2c(CCC(=O)N[C@@H]3C(=O)NC[C@H]3O)c(-c3ccc(F)cc3)[nH]c12
urine albumin/creatinine ratio (APOL1 G2 mice, IFNγ-induced; 30 mg/kg twice daily, day 7): 362 µg/mg and 13000 µg/mg and 644 µg/mg and 1080 µg/mg and 531 µg/mg and 452 µg/mg

Cc1cn(-c2cc(NC(=O)c3ccc(C)c(Nc4nccc(-c5cccnc5)n4)c3)cc(C(F)(F)F)c2)cn1
median difference in change (refers to: amyloid beta 40; human, cerebrospinal fluid; dose not given, between 12 and 6 months, unit not given; reference: placebo): 29

N#Cc1ccc2c(c1)[C@H]1CCCN(C(=O)c3ccc4[nH]cnc4c3)[C@H]1C2
change in fasting insulin (human, plasma; 10 mg, day 15, 360 h; reference: placebo and baseline): -9.4%

C[C@@H](Nc1cc(F)cc(F)c1)c1cc(C(=O)N(C)C)cc2c(=O)cc(N3CCOCC3)oc12
pPRAS40 H-score change (immunohistochemistry, refers to: phospho-PRAS40; human, tumor biopsy; oral, 120 mg twice daily continuous, 336 h after first dose; reference: baseline, direction not given): -49.7%

CCN(Cc1nc2c(N)nc3cc(-c4cc[nH]n4)ccc3c2[nH]1)C(C)=O
overall survival rate (Kaplan-Meier; advanced solid tumour patients; dose not given, 6 months): 46.1%

Cc1cc([C@H]2C[C@H]3[C@@H](CF)SC(N)=N[C@@]3(c3ccc(F)cc3F)CO2)on1
Aβ42 level (refers to: Aβx-42; Mus musculus wild-type, brain; subcutaneous, 100 mg/kg, 5 h): 0.39 ng/g

CC#CC(=O)N[C@H]1CCCN(c2c(F)cc(C(N)=O)c3[nH]c(C)c(C)c23)C1
change from baseline in serum IgM (healthy volunteers, multiple ascending dose, serum; 1 mg once daily, day 21): -4.1%

C[C@H]1C[C@H]2CSC(N)=N[C@@]2(c2nc(NC(=O)c3ccc(OC(F)F)cn3)cs2)CO1
percent change from baseline (refers to: total Aβ; healthy adults, plasma; 50 mg once daily, day 2; reference: placebo): -56.8%

C[C@H](Oc1ccc(Br)cc1-c1ccon1)C(=O)O
difference from placebo (last response latency; human, tibialis anterior muscle; 400 mg, 15 Hz, SAD): 0.613%

FC(F)(F)Oc1cccc(-c2cnc3ccc(-c4ccncc4)nn23)c1
tumour size (MDA-MB-231 xenograft, NSG mouse; oral, 10 mg/kg daily, day 13; higher = larger tumour): 0.148 a.u. and 0.117 a.u. and 0.172 a.u. and 0.126 a.u. and 0.075 a.u.

O=C1Nc2cc3[nH]nc(-c4ccncc4)c3cc2CN1Cc1ccccc1
progressive disease, best response (RECIST v1.1; human, relapsed or refractory advanced solid tumours; intravenous, 7.2 mg/kg): 67%

N#Cc1ccn2c(-c3ccncc3)c(-c3ccc(F)cc3)nc2c1
log2 fold change (kinase binding, competitor, MIB/MS competition, refers to: HSL1; Candida albicans cell lysate; 100 nM; reference: DMSO): -0.025

O=C(O)c1cc(O)c2c(c1)C(=O)c1cccc(O[C@@H]3O[C@H](CO)[C@@H](O)[C@H](O)[C@H]3O)c1C2=O
cell viability (HK-2 co-cultured with HepaRG; MTT; 33.33 µM, 48 h; reference: untreated control): 80.5 ± 4.03%

O=C(O[C@@H]1[C@@H](O)[C@H](Oc2cc(O)c3c(c2)O[C@H](c2ccccc2)CC3=O)O[C@@H]2COC(=O)c3cc(O)c(O)c(O)c3-c3c(cc(O)c(O)c3O)C(=O)O[C@@H]12)c1cc(O)c(O)c(O)c1
platelet accumulation (laser-injury thrombosis model; mouse, cremaster arterioles; intraperitoneal, 25 µg/g; reference: control): 29.6 ± 9.08%

OC(CCN1CCCCC1)(c1ccccc1)C1CC2C=CC1C2 (stereo not drawn)
power, EEG beta, O2-Pz (resting-state EEG; healthy elderly humans; oral, 4 mg, eyes open, LS mean): 6.5 µV²

CC(C)NCC(O)c1ccc(O)c(O)c1 (stereo not drawn)
sarcomere length (ventricular cardiomyocytes, C57BL/6 mouse; dose not given, 0.652 s): 1.72 µm

C[C@H]1O[C@@H](O[C@H]2CC[C@@]3(C)[C@@H](CC[C@]4(C)[C@@H]3C=C[C@]35OC[C@@]6(CCC(C)(C)C[C@H]63)[C@@H](O)C[C@]54C)[C@]2(C)CO)[C@H](O)[C@@H](O[C@@H]2O[C@H](CO)[C@@H](O)[C@H](O)[C@H]2O)[C@H]1O
SIRT1 to β-actin ratio (Western blot; ethanol-fed mice, liver; dose not given, -H dose; reference: control mice): 1.55 fold change and 1.15 fold change and 0.798 fold change

Cc1nc(N(Cc2ccccc2)c2ccc3c(c2)/C(=C/c2ccccc2)C(=O)N3Cc2ccccc2)c2ccccc2n1 (mixture of isomers)
p-PI3Kα expression (immunohistochemistry; LLC, C57BL/6 mouse, syngeneic NSCLC model, tumour tissue; dose not given): decreased

C=CC[C@@H]1/C=C(\C)C[C@H](C)C[C@H](OC)[C@H]2O[C@@](O)(C(=O)C(=O)N3CCCC[C@H]3C(=O)O[C@H](/C(C)=C/[C@@H]3CC[C@@H](O)[C@H](OC)C3)[C@H](C)[C@@H](O)CC1=O)[C@H](C)C[C@@H]2OC
Banff v score (rhesus monkey kidney transplant, kidney allograft; dose not given; direction not given): 0

CCN1CCN(Cc2ccc(Nc3ncc(F)c(-c4cc(F)c5nc6n(c5c4)[C@H](C)CCC6)n3)nc2)CC1
median progression-free survival (human advanced solid tumours; 100 mg, phase Ia monotherapy RECIST 1.1): 6.7 months

N#Cc1ccc2c(CN3CCOCC3)cc(-c3ccc([C@H]4CCC(=O)N4)cc3)nc2c1
mRNA level (decreased, refers to: Il6; BTBR ob/ob mice, male, diabetic wound model, wound tissue; dose not given, 21 days; reference: vehicle): decreased

N=C(N)NCCC[C@@H](NC(=O)CCOCCOCCNC(=O)[C@H](CCCCNC(=O)CC[C@H](NC(=O)c1ccc(NCc2cnc3nc(N)[nH]c(=O)c3n2)cc1)C(=O)O)NC(=O)CO/N=C/[C@H](F)[C@@H](O)[C@H](O)[C@H](O)CO)C(=O)NCC(=O)N[C@H](CC(=O)O)C(N)=O [fluorine-18 labelled]
reduction of tumour uptake (nude mice, MDA-MB-231 xenograft, tumour; dose not given, 2.5 h, together with: unlabelled RGD 200 µg; reference: unblocked): ~55%

COC[C@@H](c1ccc(C(F)(F)F)cc1)N1CCN(C2(C)CCN(C(=O)c3c(C)ncnc3C)CC2)C[C@@H]1C
change in HIV-1 RNA (HIV-1 patients, plasma; 15 mg, week 2; reference: baseline): -1.18 log10 copies/mL

NCC(=O)Nc1cncc(-c2nn3c(=O)cc(N4CCNCC4)nc3s2)c1
median inhibition (ADP-induced platelet aggregation, light transmission aggregometry; human, stable CAD on aspirin, platelets ex vivo; subcutaneous, 0.075 mg/kg, 90 min post-dose, together with: ADP 20 µM): 47.9%

Cn1cc(-c2ccc(-c3cncc(Cl)c3N3CCC4(CCNC4=O)CC3)cc2)cn1
fold change in expression (COLO 205; microarray, refers to: ATF3; concentration not given, 6 h, gene set ATF-3; reference: untreated cells): 2.11

COc1c(O)c(C)cc2c1C(=O)c1c(ccc(O)c1O)C2=O
viability (HK-2 co-cultured with HepaRG; MTT; 266.67 µM, 24 h; reference: untreated control): 69.5 ± 14.2%

CC(c1cc2ccccc2s1)N(O)C(N)=O (stereo not drawn)
amount (refers to: 12-HEPE; human whole blood; 3 µM, together with: Escherichia coli): 897 ± 388 pg/mL blood

O=C(O)CNC(=O)Cc1ccccc1
sarcomere length (ventricular cardiomyocytes, C57BL/6 mouse; dose not given, 0.356 s): 1.72 µm

C=CC(=O)Nc1cc(Nc2nccc(Nc3cc(Cl)c(F)cc3C(C)(C)O)n2)c(OC)cc1N1CC[C@@H](N(C)C)C1
disease control rate (human, EGFR exon20ins NSCLC; dose 100 mg and above): 86.8%

CN[C@@H]1COc2c(S(=O)(=O)NC(=O)Nc3c4c(cc5c3CCC5)CCC4)cnn2C1
inhibition (refers to: IL-18; human participants, whole blood ex vivo; 450 mg single dose, 24 h, IL-18, circulating, adjusted for, together with: LPS/ATP; reference: baseline): 84.6%

CN(C(=O)n1cnc(-c2ccc[n+]([O-])c2)c1)C1CCCCC1
peak OEA level (rat, brain; 10 mg/kg, 4 h): 2.1 ± 0.2 nmol/g

COc1cc(Nc2ncc3c(n2)-c2ccc(Cl)cc2C(c2c(F)cccc2OC)=NC3)ccc1C(=O)O
median response score (mouse, NB-EBc1 neuroblastoma xenograft; 10.4 mg/kg; direction not given): 2

Cc1ccc(C(=O)Nc2ccnc(S(N)(=O)=O)c2)c(N2CCCC(F)(F)CC2)n1
activity-dependent slowing (Macaca mulatta, C-nociceptors; intravenous, 0.6 mg/kg bolus then 0.8 mg/kg/h, 120 min): 73.7 % baseline

CC(=O)OC(C)C[N+](C)(C)C (stereo not drawn)
contraction amplitude (rat colon ex vivo; 1 nM to 10 µM): increased

CCOCc1nc(O)c(-c2nnc(Cc3ccc(Cl)cn3)o2)c(O)c1-c1c(OC)cccc1OC
dP/dtmax change (instrumented anaesthetised rat; intravenous infusion, 100 µg/kg/min for 15 min, 15 min; reference: baseline): 14.5 ± 1%

Cc1n[nH]c2ccc(-c3cc(OC[C@@H](N)Cc4ccccc4)cnc3-c3ccoc3)cc12
log2 fold change (kinase binding, competitor, MIB/MS competition, refers to: FPK1; Candida albicans cell lysate; 10 µM; reference: DMSO): -0.41

Cn1cc([C@H]2C[C@H]3CSC(N)=N[C@@]3(c3ccc(F)cc3F)CO2)cn1
brain Aβ40 level (refers to: Aβx-40; wild-type mouse, brain; subcutaneous, 50 mg/kg, 13 h): 1.46 ng/g

COc1nc(NCc2cn(-c3ccc(C(=O)Nc4ccccc4)cc3)nn2)nc(OC)n1
maximum non-toxic concentration (MTT; normal colonocytes, rat; 72 h): 40.9 ± 1.48 nM

COc1ncc(-c2nc3c(n2C(C)C)[C@H](c2ccc(Cl)cc2)N(c2cc(Cl)cn(C)c2=O)C3=O)c(OC)n1
best overall response (International Working Group criteria; human acute myeloid leukemia patients; oral, 250 mg, response CR, high-dose, recommended dose for expansion): 6.7%

O=C(O)c1cc(N2N=C(C(F)(F)F)/C(=C/c3ccc(-c4ccccc4)o3)C2=O)ccc1Cl
platelet aggregation (platelets, Ero1α knock-out, mouse; 3 to 10 µM): inhibited

COc1nc(NCc2cn(-c3ccc(NC(=O)c4ccc(Br)cc4)cc3)nn2)nc(OC)n1
maximum non-toxic concentration (MTT; normal colonocytes, rat; 72 h): 1.34 ± 0.16 nM

CC(C)C[C@@H]1NC(=O)[C@H](CC(C)C)NC(=O)[C@H](Cc2c[nH]c3ccccc23)NC(=O)[C@H](CO)NC(=O)[C@H](Cc2c[nH]c3ccccc23)NC(=O)[C@@H]2CCCN2C(=O)[C@H](CC(C)C)NC(=O)[C@H](Cc2c[nH]cn2)NC(=O)[C@@H]2CCCN2C(=O)[C@H](CC(N)=O)NC(=O)[C@H](C)NC(=O)[C@H](Cc2ccc(O)cc2)NC(=O)[C@H](CS)NC(=O)[C@H](CCCCNC(=O)CN2CCN(CC(=O)O)CCN(CC(=O)O)CCN(CC(=O)O)CC2)NC1=O [lutetium-177 labelled]
Ki-67 positive cells (immunohistochemistry; BALB/c mice, 4T1 tumour; dose not given, 7 days): 8.85 ± 0.71%

N=C(N)NCCC[C@H](NC(=O)[C@H](CCCNC(=N)N)NC(=O)[C@H](CCCCN)NC(=O)[C@H](CCC(N)=O)NC(=O)[C@H](CCCCN)NC(=O)[C@H](Cc1ccc(O)cc1)NC(=O)[C@@H](N)CCCCN)C(=O)N[C@@H](CO)C(=O)N[C@@H](Cc1ccc(O)cc1)C(=O)N[C@@H](CCCCN)C(=O)O
cold water VAS change (dentin hypersensitivity patients; 2.5 µg/tooth single, day 22, higher-VAS tooth; reference: baseline): -38.3 ± 18.6 mm

Cc1coc([C@H]2C[C@H]3[C@@H](CF)SC(N)=N[C@@]3(c3ccc(F)cc3F)CO2)n1
Aβ42 level (refers to: Aβx-42; Mus musculus wild-type, brain; subcutaneous, 80 mg/kg, 9 h): 0.7 ng/g

COc1cccc2c1C(=O)c1c(O)c3c(c(O)c1C2=O)C[C@@](O)(C(=O)CO)C[C@@H]3O[C@H]1C[C@H](N)[C@H](O)[C@H](C)O1
caspase-3/7 activity (mouse, HeLa xenograft, tumour lysate; intravenous, 8 mg/kg three times; reference: saline): ~2 fold

N#Cc1ccc2c(c1)[C@H]1CCCN(C(=O)c3ccc4[nH]cnc4c3)[C@H]1C2
change from baseline (refers to: Triglycerides; human; 80 mg once daily, day 28, adjusted mean; reference: placebo): -17.2 mg/dL

c1ccc(-c2n[nH]cc2-c2ccnc3ccccc23)nc1
log2 fold change (kinase binding, competitor, MIB/MS competition, refers to: SHA3; Candida albicans cell lysate; 1 µM; reference: DMSO): 0.939

Cc1noc(C)c1-c1cc(C(O)(c2ccccn2)c2ccccn2)c2nc(C3CC3)[nH]c2c1
maximum inhibition (refers to: CCR2 expression; human, peripheral blood; 1.4 mg, day 1, 1599 study): 43.3%

For quick reference, copied from above:
CC#CC(=O)N[C@H]1CCCN(c2c(F)cc(C(N)=O)c3[nH]c(C)c(C)c23)C1
change from baseline in serum IgM (healthy volunteers, multiple ascending dose, serum; 1 mg once daily, day 21): -4.1%

C[C@H]1C[C@H]2CSC(N)=N[C@@]2(c2nc(NC(=O)c3ccc(OC(F)F)cn3)cs2)CO1
percent change from baseline (refers to: total Aβ; healthy adults, plasma; 50 mg once daily, day 2; reference: placebo): -56.8%

C[C@H](Oc1ccc(Br)cc1-c1ccon1)C(=O)O
difference from placebo (last response latency; human, tibialis anterior muscle; 400 mg, 15 Hz, SAD): 0.613%
